Measurements pooled from the literature.
Compare with care: the assays were run in different laboratories. Numbers after ± are the reported error.
HCK Y522F: Tyrosine-protein kinase HCK (HCK, Homo sapiens, UniProt P08631, Y522F)
UniProt P08631, sequence (whole entry, unmodified, looked up): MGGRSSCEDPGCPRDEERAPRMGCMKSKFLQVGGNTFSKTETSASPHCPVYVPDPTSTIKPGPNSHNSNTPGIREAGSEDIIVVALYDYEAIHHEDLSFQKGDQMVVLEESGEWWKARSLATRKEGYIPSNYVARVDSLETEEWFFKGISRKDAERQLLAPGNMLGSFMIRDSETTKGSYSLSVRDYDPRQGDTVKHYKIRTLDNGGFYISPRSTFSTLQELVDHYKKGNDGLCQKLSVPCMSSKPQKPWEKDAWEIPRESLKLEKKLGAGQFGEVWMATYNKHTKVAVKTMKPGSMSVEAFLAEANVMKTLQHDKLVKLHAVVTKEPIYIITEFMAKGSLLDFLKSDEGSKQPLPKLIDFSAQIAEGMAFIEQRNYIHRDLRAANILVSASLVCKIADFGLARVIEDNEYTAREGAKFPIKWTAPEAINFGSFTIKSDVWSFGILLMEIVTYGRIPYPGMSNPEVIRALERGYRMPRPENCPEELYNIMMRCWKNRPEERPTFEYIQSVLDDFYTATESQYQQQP
CNR1: Cannabinoid receptor 1 (CNR1, Homo sapiens, UniProt P21554)
UniProt P21554, sequence (whole entry, unmodified, looked up): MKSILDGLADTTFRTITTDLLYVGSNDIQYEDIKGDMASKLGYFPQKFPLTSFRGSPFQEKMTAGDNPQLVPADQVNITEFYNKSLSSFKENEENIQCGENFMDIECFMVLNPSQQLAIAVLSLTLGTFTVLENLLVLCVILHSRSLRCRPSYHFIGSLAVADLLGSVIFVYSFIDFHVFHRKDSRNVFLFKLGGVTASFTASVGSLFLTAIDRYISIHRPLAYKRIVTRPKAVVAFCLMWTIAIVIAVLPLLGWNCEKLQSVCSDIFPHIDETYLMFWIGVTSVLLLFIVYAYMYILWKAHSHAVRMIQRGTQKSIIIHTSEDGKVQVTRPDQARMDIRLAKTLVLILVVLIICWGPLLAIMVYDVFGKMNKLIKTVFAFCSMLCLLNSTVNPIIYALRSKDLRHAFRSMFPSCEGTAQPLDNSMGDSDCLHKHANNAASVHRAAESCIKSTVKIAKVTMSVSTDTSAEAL
UniProt P41143, sequence (whole entry, unmodified, looked up): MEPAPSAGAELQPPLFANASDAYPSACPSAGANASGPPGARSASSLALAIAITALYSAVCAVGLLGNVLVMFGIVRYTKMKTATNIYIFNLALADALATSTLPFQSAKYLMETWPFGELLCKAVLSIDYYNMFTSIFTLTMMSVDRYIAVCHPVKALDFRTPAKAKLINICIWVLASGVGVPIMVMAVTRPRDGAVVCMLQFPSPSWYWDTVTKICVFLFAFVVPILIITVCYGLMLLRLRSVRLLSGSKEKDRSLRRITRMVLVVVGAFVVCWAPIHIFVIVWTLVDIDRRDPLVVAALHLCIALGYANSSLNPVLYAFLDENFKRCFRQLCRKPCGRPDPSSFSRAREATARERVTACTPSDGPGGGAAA
UniProt P9WHG9, sequence (53-446, looked up): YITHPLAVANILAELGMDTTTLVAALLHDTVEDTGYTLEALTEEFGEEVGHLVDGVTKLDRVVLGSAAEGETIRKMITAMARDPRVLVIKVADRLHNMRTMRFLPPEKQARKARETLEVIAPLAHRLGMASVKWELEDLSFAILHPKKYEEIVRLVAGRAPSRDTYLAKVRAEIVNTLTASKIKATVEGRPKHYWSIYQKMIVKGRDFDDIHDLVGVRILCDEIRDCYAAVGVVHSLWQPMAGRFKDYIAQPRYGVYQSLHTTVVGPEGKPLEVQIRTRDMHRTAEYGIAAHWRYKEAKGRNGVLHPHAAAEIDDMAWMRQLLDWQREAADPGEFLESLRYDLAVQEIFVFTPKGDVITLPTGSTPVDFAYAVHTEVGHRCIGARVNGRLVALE
UniProt Q01959, sequence (whole entry, unmodified, looked up): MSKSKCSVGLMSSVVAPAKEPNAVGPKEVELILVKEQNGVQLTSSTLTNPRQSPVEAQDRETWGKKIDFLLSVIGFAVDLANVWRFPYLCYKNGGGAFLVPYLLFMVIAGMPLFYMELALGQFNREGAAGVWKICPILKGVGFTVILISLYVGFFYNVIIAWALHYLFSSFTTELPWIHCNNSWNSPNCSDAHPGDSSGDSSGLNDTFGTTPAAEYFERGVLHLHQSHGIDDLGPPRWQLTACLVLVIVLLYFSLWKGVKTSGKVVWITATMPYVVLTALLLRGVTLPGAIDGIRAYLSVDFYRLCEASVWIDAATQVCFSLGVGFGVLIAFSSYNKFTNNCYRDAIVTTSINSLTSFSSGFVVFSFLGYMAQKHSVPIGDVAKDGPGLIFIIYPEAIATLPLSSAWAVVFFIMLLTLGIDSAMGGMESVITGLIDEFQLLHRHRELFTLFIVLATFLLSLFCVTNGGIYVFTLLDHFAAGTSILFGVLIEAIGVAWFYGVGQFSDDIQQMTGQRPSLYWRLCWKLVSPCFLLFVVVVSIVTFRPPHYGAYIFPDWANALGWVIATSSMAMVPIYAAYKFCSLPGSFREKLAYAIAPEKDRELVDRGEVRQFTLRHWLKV
UniProt P09958, sequence (whole entry, looked up): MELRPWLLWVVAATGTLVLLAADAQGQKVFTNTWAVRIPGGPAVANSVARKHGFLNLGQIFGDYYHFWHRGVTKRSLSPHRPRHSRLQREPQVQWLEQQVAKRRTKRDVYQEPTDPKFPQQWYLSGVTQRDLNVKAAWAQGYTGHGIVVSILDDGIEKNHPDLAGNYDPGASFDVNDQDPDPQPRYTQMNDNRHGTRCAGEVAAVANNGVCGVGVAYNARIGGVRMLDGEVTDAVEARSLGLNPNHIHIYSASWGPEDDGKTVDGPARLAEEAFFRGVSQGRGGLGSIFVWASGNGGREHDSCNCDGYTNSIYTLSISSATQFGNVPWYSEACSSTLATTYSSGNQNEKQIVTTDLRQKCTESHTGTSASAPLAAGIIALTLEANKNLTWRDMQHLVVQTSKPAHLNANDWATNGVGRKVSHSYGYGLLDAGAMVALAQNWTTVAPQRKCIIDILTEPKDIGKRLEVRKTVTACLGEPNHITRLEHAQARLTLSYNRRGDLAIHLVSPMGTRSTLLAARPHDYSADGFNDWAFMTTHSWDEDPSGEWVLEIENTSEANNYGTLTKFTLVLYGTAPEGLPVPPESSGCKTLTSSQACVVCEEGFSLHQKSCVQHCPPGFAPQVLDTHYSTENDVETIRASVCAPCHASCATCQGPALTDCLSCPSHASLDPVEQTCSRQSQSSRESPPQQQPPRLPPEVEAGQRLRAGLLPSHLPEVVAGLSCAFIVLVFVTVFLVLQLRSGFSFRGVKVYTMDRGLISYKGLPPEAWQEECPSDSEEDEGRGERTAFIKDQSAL
UniProt P21917, sequence (whole entry, looked up): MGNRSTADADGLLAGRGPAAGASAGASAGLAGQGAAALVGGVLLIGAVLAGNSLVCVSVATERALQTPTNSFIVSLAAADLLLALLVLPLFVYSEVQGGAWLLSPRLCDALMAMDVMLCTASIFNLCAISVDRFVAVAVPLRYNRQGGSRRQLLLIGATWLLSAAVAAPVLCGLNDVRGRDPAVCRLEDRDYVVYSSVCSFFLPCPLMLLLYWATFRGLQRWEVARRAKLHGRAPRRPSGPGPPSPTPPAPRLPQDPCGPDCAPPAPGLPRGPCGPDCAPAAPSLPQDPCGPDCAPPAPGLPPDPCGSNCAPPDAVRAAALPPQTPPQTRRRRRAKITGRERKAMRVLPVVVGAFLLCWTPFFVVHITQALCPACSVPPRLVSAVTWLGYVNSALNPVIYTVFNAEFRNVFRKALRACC

Compound | target | assay | setting | measurement | result
Cc1sc2c(c1C)C(c1ccc(Cl)cc1)=N[C@@H](CC(=O)OC(C)(C)C)c1nnc(C)n1-2 | non-BET bromodomains | – | – | Kd | ≥ 24 µM
Cc1ccc2c(C(C[N+](=O)[O-])c3cccs3)c(-c3ccccc3)[nH]c2c1 (stereo not shown) | CNR1 (Homo sapiens, UniProt P21554, V171A) | β-arrestin recruitment, agonist, luciferase | – | EC50 | 0.21 µM
CC[C@H](C)[C@H](NC(=O)[C@H](CC(C)C)NC(=O)[C@H](CC(=O)O)NC(=O)[C@H](CCC(=O)O)NC(=O)[C@@H](NC(=O)[C@@H]1CC=NN1C(=O)[C@H](C)NC(=O)[C@H](CC(=O)O)NC(=O)[C@H](CC(=O)O)NC(=O)CNC(=O)[C@@H]1CCCN1C(=O)[C@H](Cc1ccc(O)cc1)NC(=O)[C@@H]1CC=NN1C(=O)[C@@H]1CCCN1C(=O)[C@@H]1CC=NN1C(=O)[C@H](CO)NC(=O)[C@@H]1CCCN1C(=O)CN)C(C)C)C(=O)N[C@@H](CCCNC(=N)N)C(=O)N[C@@H](Cc1ccccc1)C(=O)N[C@@H](Cc1ccc(O)cc1)C(=O)N[C@@H](CC(=O)O)C(=O)N[C@@H](CC(N)=O)C(=O)N[C@@H](CC(C)C)C(=O)N[C@@H](CCC(N)=O)C(=O)N[C@@H](CCC(N)=O)C(=O)N[C@@H](Cc1ccc(O)cc1)C(=O)N[C@@H](CC(C)C)C(=O)N[C@@H](CC(N)=O)C(=O)N[C@H](C(=O)N[C@H](C(=O)N[C@H](C(=O)N[C@@H](CCCNC(=N)N)C(=O)N[C@@H](Cc1c[nH]cn1)C(=O)N[C@@H](CCCNC(=N)N)C(=O)N[C@@H](Cc1ccc(O)cc1)C(N)=O)[C@@H](C)O)C(C)C)C(C)C | avian pancreatic polypeptide dimer | monomer-dimer association, sedimentation equilibrium ultracentrifugation | pH 8.0, 25 °C | Kd | 58.2 µM
CC(C)n1nc(-c2ccc3cc(OCc4cccc(Cl)c4)ccc3c2)c2c(N)ncnc21 | HCK Y522F | enzyme activity, inhibitor | – | Ki | 0.083 µM
CN(C)CC1CN(S(=O)(F)=Nc2cc(Cl)c(C(=O)N3CCO[C@@H](c4ccccc4)C3)c(Cl)c2)C1 (stereo partly shown) | Hemagglutinin (Influenza A virus, UniProt A4GBW6) | binding | – | Kd | 0.019 µM
CC(C)n1nc(-c2ccc3cc(OCc4ccccc4)ccc3c2)c2c(N)ncnc21 | HCK (Homo sapiens, UniProt P08631, Q523E/Q524E/Q525I) | enzyme activity, inhibitor | – | Ki | 0.06 µM
CCCCCn1cc(C(=O)c2ccc3c(c2)CC(C)(C)C3)c2ccccc21 | CNR1 | G protein activation, agonist, BRET | – | EC50 | 0.0661 µM
CCOC(=O)C=CC(CC1CCNC1=O)NC(=O)C(CC(C)C)NC(=O)C(NC(=O)OCc1ccccc1)C(C)OC(C)(C)C (stereo not shown) | Replicase polyprotein 1ab, main protease (rep, Human coronavirus NL63, UniProt P0C6X5) | viral replication | – | EC50 | 4.92 µM
COc1ccccc1C(C[N+](=O)[O-])c1c(-c2ccccc2)[nH]c2ccccc12 (stereo not shown) | CNR1 (Homo sapiens, UniProt P21554, L252A) | G protein activation, agonist, BRET | – | EC50 | > 1000 µM
CCCCCn1cc(C(=O)c2cccc3ccccc23)c2ccccc21 | CNR1 (Homo sapiens, UniProt P21554, F177A) | cAMP, agonist, BRET | – | EC50 | 0.0151 µM
CCC[C@@H](C(=O)c1ccccc1)N1CCCC1 | SLC6A3 (Homo sapiens, UniProt Q01959, V152I) | transporter uptake, inhibitor, radiometric | – | Ki | 0.016 µM
O=[N+]([O-])CC(c1ccco1)c1c(-c2ccccc2)[nH]c2ccccc12 (stereo not shown) | CNR1 (Homo sapiens, UniProt P21554, I245A) | G protein activation, agonist, BRET | – | EC50 | 1.27 µM
CC(C)CC(C(=O)N1CC2(CC1C#N)C(=O)Nc1ccccc12)N(C)C(=O)c1cc2c(F)cc(F)c(F)c2[nH]1 (stereo not shown) | Furin (FURIN, Homo sapiens, UniProt P09958) | enzyme activity, inhibitor | – | IC50 | > 100 µM
COc1ccc(CN2CCN(c3nc(C)ccc3C(=O)OC(C)C)CC2)cc1Cl | relA, residues 53-446 (Mycobacterium tuberculosis, UniProt P9WHG9) | enzyme activity, inhibitor, fluorescence polarization | – | IC50 | 12.6 µM
CCN(CC)C(=O)c1ccc(C(c2cccc(O)c2)N2CC(C)N(Cc3ccccc3)CC2C)cc1 (stereo not shown) | OPRD1 (Homo sapiens, UniProt P41143, Y308F) | – | – | Ki | 0.00098 ± 0.00012 µM
CC(C)(C)n1nc(-c2ccc(Cl)cc2)c2c(N)ncnc21 | SRC (Gallus gallus, UniProt P00523, G530I/P529E/Q528E) | enzyme activity, inhibitor | – | Ki | 0.081 µM
CCCCCn1cc(C(=O)c2ccc3ccccc3c2)c2ccccc21 | CNR1 | Gαi1 activation, agonist, BRET | – | EC50 | 0.0741 µM
Nc1ncnc2c1c(-c1ccc(Oc3ccccc3)cc1)nn2C1CCCC1 | HCK Y522F | enzyme activity, inhibitor | – | Ki | 0.083 µM
CCN(CC)C(=O)[C@@H]1C=C2c3cccc4c3c(cn4C(=O)c3ccco3)C[C@H]2N(C)C1 | DRD4 (Homo sapiens, UniProt P21917) | ligand displacement, radioligand | – | Ki | 2.27 µM

Excerpt of the above:
Compound | target | assay | setting | measurement | result
CC[C@H](C)[C@H](NC(=O)[C@H](CC(C)C)NC(=O)[C@H](CC(=O)O)NC(=O)[C@H](CCC(=O)O)NC(=O)[C@@H](NC(=O)[C@@H]1CC=NN1C(=O)[C@H](C)NC(=O)[C@H](CC(=O)O)NC(=O)[C@H](CC(=O)O)NC(=O)CNC(=O)[C@@H]1CCCN1C(=O)[C@H](Cc1ccc(O)cc1)NC(=O)[C@@H]1CC=NN1C(=O)[C@@H]1CCCN1C(=O)[C@@H]1CC=NN1C(=O)[C@H](CO)NC(=O)[C@@H]1CCCN1C(=O)CN)C(C)C)C(=O)N[C@@H](CCCNC(=N)N)C(=O)N[C@@H](Cc1ccccc1)C(=O)N[C@@H](Cc1ccc(O)cc1)C(=O)N[C@@H](CC(=O)O)C(=O)N[C@@H](CC(N)=O)C(=O)N[C@@H](CC(C)C)C(=O)N[C@@H](CCC(N)=O)C(=O)N[C@@H](CCC(N)=O)C(=O)N[C@@H](Cc1ccc(O)cc1)C(=O)N[C@@H](CC(C)C)C(=O)N[C@@H](CC(N)=O)C(=O)N[C@H](C(=O)N[C@H](C(=O)N[C@H](C(=O)N[C@@H](CCCNC(=N)N)C(=O)N[C@@H](Cc1c[nH]cn1)C(=O)N[C@@H](CCCNC(=N)N)C(=O)N[C@@H](Cc1ccc(O)cc1)C(N)=O)[C@@H](C)O)C(C)C)C(C)C | avian pancreatic polypeptide dimer | monomer-dimer association, sedimentation equilibrium ultracentrifugation | pH 8.0, 25 °C | Kd | 58.2 µM
CC(C)(C)n1nc(-c2ccc(Cl)cc2)c2c(N)ncnc21 | SRC (Gallus gallus, UniProt P00523, G530I/P529E/Q528E) | enzyme activity, inhibitor | – | Ki | 0.081 µM
